Published values from different studies.
Every numbered part comes from another study and shows a few of its results, in no order.
UniProt P22455, sequence (whole entry, looked up): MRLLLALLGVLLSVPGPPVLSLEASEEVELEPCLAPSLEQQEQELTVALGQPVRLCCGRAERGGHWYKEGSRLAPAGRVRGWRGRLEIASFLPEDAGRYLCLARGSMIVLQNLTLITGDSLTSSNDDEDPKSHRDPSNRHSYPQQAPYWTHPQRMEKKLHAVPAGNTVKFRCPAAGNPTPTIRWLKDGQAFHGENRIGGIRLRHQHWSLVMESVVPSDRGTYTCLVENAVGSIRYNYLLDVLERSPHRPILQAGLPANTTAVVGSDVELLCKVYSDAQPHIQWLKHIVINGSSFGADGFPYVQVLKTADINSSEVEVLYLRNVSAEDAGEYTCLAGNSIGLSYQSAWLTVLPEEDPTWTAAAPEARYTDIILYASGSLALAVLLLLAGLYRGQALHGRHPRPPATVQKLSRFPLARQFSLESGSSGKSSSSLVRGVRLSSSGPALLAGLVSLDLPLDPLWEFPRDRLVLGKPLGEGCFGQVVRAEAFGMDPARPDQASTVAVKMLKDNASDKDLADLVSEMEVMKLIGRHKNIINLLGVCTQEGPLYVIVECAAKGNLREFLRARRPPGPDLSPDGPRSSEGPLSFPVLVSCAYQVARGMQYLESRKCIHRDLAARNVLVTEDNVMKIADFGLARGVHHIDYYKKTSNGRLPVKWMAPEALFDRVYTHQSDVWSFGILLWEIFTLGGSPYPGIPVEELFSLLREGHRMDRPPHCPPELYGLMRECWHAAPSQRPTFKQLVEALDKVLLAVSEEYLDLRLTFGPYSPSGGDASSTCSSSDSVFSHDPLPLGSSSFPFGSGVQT
UniProt Q86UX6, sequence (whole entry, looked up): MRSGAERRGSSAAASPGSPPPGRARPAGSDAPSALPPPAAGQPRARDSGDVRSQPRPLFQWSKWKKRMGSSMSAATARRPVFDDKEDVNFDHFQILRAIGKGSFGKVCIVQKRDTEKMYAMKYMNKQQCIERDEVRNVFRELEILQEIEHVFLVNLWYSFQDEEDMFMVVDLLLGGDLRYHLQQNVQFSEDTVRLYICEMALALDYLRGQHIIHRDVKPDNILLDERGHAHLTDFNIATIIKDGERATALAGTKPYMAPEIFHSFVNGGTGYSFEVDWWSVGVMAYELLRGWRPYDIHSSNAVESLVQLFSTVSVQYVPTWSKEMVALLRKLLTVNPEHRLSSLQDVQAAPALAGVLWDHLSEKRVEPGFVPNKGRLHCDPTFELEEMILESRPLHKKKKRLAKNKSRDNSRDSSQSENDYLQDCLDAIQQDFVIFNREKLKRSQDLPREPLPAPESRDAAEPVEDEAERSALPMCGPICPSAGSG
UniProt Q9NRA0, sequence (whole entry, looked up): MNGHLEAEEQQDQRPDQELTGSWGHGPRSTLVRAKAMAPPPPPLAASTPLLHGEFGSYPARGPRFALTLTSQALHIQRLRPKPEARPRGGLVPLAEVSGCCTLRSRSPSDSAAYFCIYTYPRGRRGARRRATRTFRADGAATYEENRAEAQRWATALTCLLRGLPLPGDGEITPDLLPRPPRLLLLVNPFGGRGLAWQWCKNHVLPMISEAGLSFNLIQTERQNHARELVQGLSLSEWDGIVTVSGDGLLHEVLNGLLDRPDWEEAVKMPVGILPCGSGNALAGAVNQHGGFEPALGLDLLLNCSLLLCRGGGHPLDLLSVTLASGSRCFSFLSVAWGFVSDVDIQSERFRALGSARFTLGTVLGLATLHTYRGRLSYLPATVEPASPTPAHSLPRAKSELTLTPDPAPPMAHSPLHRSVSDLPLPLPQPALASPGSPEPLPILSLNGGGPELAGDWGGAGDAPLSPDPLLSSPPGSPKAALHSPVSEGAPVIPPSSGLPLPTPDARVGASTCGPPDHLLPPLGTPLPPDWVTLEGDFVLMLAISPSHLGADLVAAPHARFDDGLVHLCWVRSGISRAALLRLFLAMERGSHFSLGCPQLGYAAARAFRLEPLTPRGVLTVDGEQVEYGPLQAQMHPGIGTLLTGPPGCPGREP
UniProt Q02750, sequence (whole entry, looked up): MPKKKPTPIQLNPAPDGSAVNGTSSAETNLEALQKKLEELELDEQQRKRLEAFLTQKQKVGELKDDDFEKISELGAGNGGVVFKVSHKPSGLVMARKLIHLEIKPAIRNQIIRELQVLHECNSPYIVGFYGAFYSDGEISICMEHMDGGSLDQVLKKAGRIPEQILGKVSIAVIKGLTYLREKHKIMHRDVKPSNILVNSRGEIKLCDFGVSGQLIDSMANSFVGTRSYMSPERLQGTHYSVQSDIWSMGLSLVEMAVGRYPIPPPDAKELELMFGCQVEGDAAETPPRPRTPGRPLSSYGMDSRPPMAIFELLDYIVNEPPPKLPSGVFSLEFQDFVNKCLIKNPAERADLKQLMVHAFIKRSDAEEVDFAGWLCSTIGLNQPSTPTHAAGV

Sample 1
SMILES: CC[C@@]1(c2cccc(-c3c(F)cncc3OC)c2)C2=C(Nc3n[nH]cc31)[C@H](F)C(C)(C)CC2=O (single isomer, unassigned)
Tested at: 1 µM
Quantity: remaining binding
target = STK32A (Homo sapiens, UniProt Q8WU08); effect on = kinase binding; technique = KINOMEscan; reference = DMSO control; result = 81%
target = Cyclin-dependent kinase 4, with cyclin D1 (CDK4, Homo sapiens, UniProt P11802); effect on = kinase binding; technique = KINOMEscan; reference = DMSO control; result = 63%
target = MATK (Homo sapiens, UniProt P42679); effect on = binding; technique = competition with immobilised ligand; result = 24%
target = MAST1 (Homo sapiens, UniProt Q9Y2H9); effect on = binding; technique = competition with immobilised ligand; result = 100%
target = PI4KB (Homo sapiens, UniProt Q9UBF8); effect on = binding; technique = competition with immobilised ligand; result = 66%
target = ERBB2 (Homo sapiens, UniProt P04626); effect on = kinase binding; technique = KINOMEscan; reference = DMSO control; result = 67%
target = STK3 (Homo sapiens, UniProt Q13188); effect on = kinase binding; technique = KINOMEscan; reference = DMSO control; result = 100%
target = PIP4K2B (Homo sapiens, UniProt P78356); effect on = binding; technique = competition with immobilised ligand; result = 100%
target = STK32C (Homo sapiens, UniProt Q86UX6); effect on = binding; technique = competition with immobilised ligand; result = 97%
target = EPHA5 (Homo sapiens, UniProt P54756); effect on = kinase binding; technique = KINOMEscan; reference = DMSO control; result = 70%
target = Tyrosine-protein kinase ABL1, phosphorylated (ABL1, Homo sapiens, UniProt P00519, T315I); effect on = kinase binding; technique = KINOMEscan; reference = DMSO control; result = 77%
target = EIF2AK2 (Homo sapiens, UniProt P19525); effect on = kinase binding; technique = KINOMEscan; reference = DMSO control; result = 94%
target = Mast/stem cell growth factor receptor Kit, autoinhibited (KIT, Homo sapiens, UniProt P10721); effect on = binding; technique = competition with immobilised ligand; result = 72%
target = ULK3 (Homo sapiens, UniProt Q6PHR2); effect on = binding; technique = competition with immobilised ligand; result = 48%
target = CDK7 (Homo sapiens, UniProt P50613); effect on = binding; technique = competition with immobilised ligand; result = 86%
target = STK17B (Homo sapiens, UniProt O94768); effect on = kinase binding; technique = KINOMEscan; reference = DMSO control; result = 80%
target = CSNK1G2 (Homo sapiens, UniProt P78368); effect on = binding; technique = competition with immobilised ligand; result = 94%
target = PKN1 (Homo sapiens, UniProt Q16512); effect on = kinase binding; technique = KINOMEscan; reference = DMSO control; result = 100%

Sample 2
SMILES: CNc1ncc2cc(-c3cc(OC)cc(OC)c3Cl)c(=O)n(CCc3ccc(NC(=O)C(C#N)=CC(C)(C)N4CCOCC4)cc3)c2n1
Quantity: inhibition
target = PRKG2 (Homo sapiens, UniProt Q13237); effect on = kinase activity; tested at = 0.1 µM; result = 0%
target = DAPK1 (Homo sapiens, UniProt P53355); effect on = kinase activity; tested at = 0.1 µM; result = -1%
target = NUAK1 (Homo sapiens, UniProt O60285); effect on = kinase activity; tested at = 1 µM; result = 3%
target = PASK (Homo sapiens, UniProt Q96RG2); effect on = kinase activity; tested at = 0.1 µM; result = 11%
target = CAMK2D (Homo sapiens, UniProt Q13557); effect on = kinase activity; tested at = 0.1 µM; result = -1%
target = PIK3CG (Homo sapiens, UniProt P48736); effect on = kinase activity; tested at = 0.1 µM; result = 3%
target = PIK3CB (Homo sapiens, UniProt P42338); effect on = kinase activity; tested at = 1 µM; result = -9%
target = FES (Homo sapiens, UniProt P07332); effect on = kinase activity; tested at = 0.1 µM; result = 0%
target = BRAF (Homo sapiens, UniProt P15056); effect on = kinase activity; tested at = 0.1 µM; result = -2%
target = AXL (Homo sapiens, UniProt P30530); effect on = kinase activity; tested at = 1 µM; result = 3%
target = STK4 (Homo sapiens, UniProt Q13043); effect on = kinase activity; tested at = 1 µM; result = 5%
target = SYK (Homo sapiens, UniProt P43405); effect on = kinase activity; tested at = 1 µM; result = 1%
target = NTRK3 (Homo sapiens, UniProt Q16288); effect on = kinase activity; tested at = 1 µM; result = 9%
target = FGFR4 (Homo sapiens, UniProt P22455); effect on = kinase activity; tested at = 0.1 µM; result = 62%
target = SPHK2 (Homo sapiens, UniProt Q9NRA0); effect on = kinase activity; tested at = 1 µM; result = -1%
target = MAP2K1 (Homo sapiens, UniProt Q02750); effect on = kinase activity; tested at = 1 µM; result = 6%
target = MAPK11 (Homo sapiens, UniProt Q15759); effect on = kinase activity; tested at = 0.1 µM; result = -1%
target = ABL2 (Homo sapiens, UniProt P42684); effect on = kinase activity; tested at = 0.1 µM; result = 1%
target = PRKCZ (Homo sapiens, UniProt Q05513); effect on = kinase activity; tested at = 0.1 µM; result = -5%
target = NDRG1; tested at = 1 µM; setting = mean; result = -5%
target = EPHA1 (Homo sapiens, UniProt P21709); effect on = kinase activity; tested at = 0.1 µM; result = 0%

Sample 3
SMILES: C[C@@H]1CN(c2ccc(-c3cc(C(=O)NCCOCCOCCOCCOCCNC(=O)/C=C/c4[nH]cc(C(=O)N[C@@H](CC(N)=O)c5ccc(F)c(Cl)c5)c4-c4ccc(Cl)cc4F)ccc3F)cc2NC(=O)c2c[nH]c(=O)cc2C(F)(F)F)C[C@H](C)N1C
Effect on: thermal unfolding
Technique: differential scanning fluorimetry
Tested at: 5.5 µM
Direction: higher = more unfolded
Quantity: SYPRO Orange fluorescence
DCAF1: DDB1- and CUL4-associated factor 1 (DCAF1, Homo sapiens, UniProt Q9Y4B6)
UniProt Q9Y4B6, sequence (whole entry, looked up): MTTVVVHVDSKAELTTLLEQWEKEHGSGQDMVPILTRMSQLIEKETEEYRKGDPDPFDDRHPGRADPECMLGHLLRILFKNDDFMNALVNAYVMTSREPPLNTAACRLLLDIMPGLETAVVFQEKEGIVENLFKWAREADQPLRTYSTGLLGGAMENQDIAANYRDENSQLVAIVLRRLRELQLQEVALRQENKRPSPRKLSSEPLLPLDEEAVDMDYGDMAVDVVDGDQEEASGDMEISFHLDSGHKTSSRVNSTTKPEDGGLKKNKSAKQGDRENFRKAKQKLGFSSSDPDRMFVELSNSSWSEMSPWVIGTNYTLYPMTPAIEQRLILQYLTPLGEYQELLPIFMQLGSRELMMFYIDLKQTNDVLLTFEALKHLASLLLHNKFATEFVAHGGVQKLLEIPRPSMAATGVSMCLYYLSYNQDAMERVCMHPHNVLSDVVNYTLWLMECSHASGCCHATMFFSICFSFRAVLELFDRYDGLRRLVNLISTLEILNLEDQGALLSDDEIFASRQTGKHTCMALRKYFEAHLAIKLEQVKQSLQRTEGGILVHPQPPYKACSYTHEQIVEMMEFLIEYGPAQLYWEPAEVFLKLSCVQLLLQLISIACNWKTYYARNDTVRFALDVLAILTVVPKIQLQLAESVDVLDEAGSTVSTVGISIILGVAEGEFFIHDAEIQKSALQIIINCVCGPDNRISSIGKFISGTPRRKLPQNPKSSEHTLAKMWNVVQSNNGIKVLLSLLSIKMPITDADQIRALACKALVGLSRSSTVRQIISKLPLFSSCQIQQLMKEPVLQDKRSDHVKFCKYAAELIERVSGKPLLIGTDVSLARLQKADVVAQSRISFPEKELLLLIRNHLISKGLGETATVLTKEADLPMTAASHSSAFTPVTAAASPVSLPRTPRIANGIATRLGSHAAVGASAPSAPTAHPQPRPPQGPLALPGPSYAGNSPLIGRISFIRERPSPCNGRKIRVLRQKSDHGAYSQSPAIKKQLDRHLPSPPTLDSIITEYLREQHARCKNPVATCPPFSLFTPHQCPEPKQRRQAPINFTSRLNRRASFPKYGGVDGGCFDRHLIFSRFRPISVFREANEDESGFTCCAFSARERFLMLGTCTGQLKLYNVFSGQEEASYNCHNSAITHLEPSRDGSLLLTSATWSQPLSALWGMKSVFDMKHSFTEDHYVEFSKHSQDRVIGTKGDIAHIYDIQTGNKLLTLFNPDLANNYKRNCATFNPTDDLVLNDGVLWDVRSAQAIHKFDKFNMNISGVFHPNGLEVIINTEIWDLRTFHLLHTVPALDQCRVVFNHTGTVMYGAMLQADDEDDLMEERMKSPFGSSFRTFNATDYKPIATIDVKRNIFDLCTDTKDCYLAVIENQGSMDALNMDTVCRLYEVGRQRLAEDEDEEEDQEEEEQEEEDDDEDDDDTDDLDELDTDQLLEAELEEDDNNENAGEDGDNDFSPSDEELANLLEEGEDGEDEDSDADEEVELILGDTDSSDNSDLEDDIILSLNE
WDR5: WD repeat-containing protein 5 (WDR5, Homo sapiens, UniProt P61964)
target = DCAF1; temperature = 31.8 °C; result = 9720 a.u.
target = WDR5; temperature = 54.41 °C; result = 16800 a.u.
target = WDR5; temperature = 42 °C; result = 14800 a.u.
target = DCAF1; temperature = 84.61 °C; result = 40700 a.u.
target = DCAF1; temperature = 36.6 °C; result = 10500 a.u.
target = DCAF1; temperature = 37.2 °C; result = 10700 a.u.
target = DCAF1; temperature = 38.2 °C; result = 11000 a.u.
target = DCAF1; temperature = 46 °C; result = 13400 a.u.
target = WDR5; temperature = 33.8 °C; result = 13100 a.u.
target = WDR5; temperature = 68.61 °C; result = 14800 a.u.
target = WDR5; temperature = 77.81 °C; result = 33700 a.u.

Single results of other studies
Structure (SMILES) = Cc1ccc(O)c(C)c1-c1cnc2[nH]c(-c3cnc(N4CCC(CN5CCN(c6ccc7c(c6)CN(C6CCC(=O)NC6=O)C7=O)CC5)CC4)nc3)cc2c1C#N (stereo not drawn); system = female CD-1 mouse, plasma; conditions = oral, 10 mg/kg; quantity = Cmax; result = 279 ng/mL
Structure (SMILES) = Cc1ccc(O)c(C)c1-c1cnc2[nH]c(-c3cnc(N4CCC(CN5CCN(c6ccc7c(c6)C(=O)N(C6CCC(=O)NC6=O)C7=O)CC5)CC4)nc3)cc2c1C#N (stereo not drawn); system = CD-1 mouse; conditions = oral, 10 mg/kg, 24 h; quantity = plasma concentration; result = not detected
Structure (SMILES) = Cc1ccc(O)c(C)c1-c1cnc2[nH]c(-c3cnc(N4CCC(CN5CCN(c6cc7c(cc6F)c(N6CCC(=O)NC6=O)nn7C)CC5)CC4)nc3)cc2c1C#N; system = female CD-1 mouse, plasma; conditions = oral, 20 mg/kg; quantity = half-life; result = 2.3 h
Structure (SMILES) = Cc1ccc(O)c(C)c1-c1cnc2[nH]c(-c3cnc(N4CCC(CN5CCN(c6cc7c(cc6F)n(C6CCC(=O)NC6=O)c(=O)n7C)CC5)CC4)nc3)cc2c1C#N (stereo not drawn); target or system = HCC1569; assay = CDK1 Thr14 phosphorylation, in-cell western; conditions = 1000.00 nM; how to read = lower = stronger inhibition; quantity = phospho-CDK1 (Thr14) level; result = 102 a.u.
